Experimental data from different studies.
Compare with care: the assays were run in different laboratories.
Organism: Pseudomonas aeruginosa

SMILES | test | system | setting | how to read | MIC
CC[C@H](C)[C@H](NC(=O)CNC(=O)[C@H](CC(=O)O)NC(=O)[C@H](CCCNC(=N)N)NC(=O)[C@@H](NC(=O)[C@H](CC(N)=O)NC(=O)[C@H](CCCNC(=N)N)NC(=O)CNC(=O)[C@@H](NC(=O)[C@H](CCCCN)NC(=O)[C@H](CCC(=O)O)NC(=O)[C@@H](NC(=O)[C@H](CCCCN)NC(=O)[C@H](CCCCN)NC(=O)[C@H](Cc1ccccc1)NC(=O)[C@@H](NC(=O)[C@H](CCCCN)NC(=O)[C@H](Cc1c[nH]c2ccccc12)NC(=O)[C@@H](N)CCCNC(=N)N)[C@@H](C)CC)[C@@H](C)CC)C(C)C)C(C)C)C(=O)N[C@H](C(=O)N[C@@H](CCCCN)C(=O)N[C@@H](C)C(=O)NCC(=O)N1CCC[C@H]1C(=O)N[C@@H](C)C(=O)N[C@H](C(=O)N[C@@H](C)C(=O)N[C@H](C(=O)N[C@H](C(=O)NCC(=O)N[C@@H](CCC(N)=O)C(=O)N[C@@H](C)C(=O)N[C@@H](C)C(=O)N[C@H](C(=O)N[C@H](C(=O)N[C@H](C(=O)N[C@@H](CCCCN)C(N)=O)C(C)C)C(C)C)[C@@H](C)O)C(C)C)C(C)C)C(C)C)[C@@H](C)CC |  | KCCM 11328, Mueller-Hinton broth | 16 h, 37 °C | growth inhibition over 99% | 4 µM
CC[C@H](C)[C@H](NC(=O)[C@H](Cc1c[nH]c2ccccc12)NC(=O)[C@@H](NC(=O)[C@H](Cc1ccccc1)NC(=O)[C@@H]1CCCN1C(=O)[C@@H](NC(=O)[C@H](C)N)[C@@H](C)CC)[C@@H](C)CC)C(=O)N[C@@H](Cc1ccccc1)C(=O)N[C@@H](CCCNC(=N)N)C(=O)N[C@@H](CC(C)C)C(=O)N[C@@H](CC(C)C)C(=O)N[C@@H](CCCNC(=N)N)C(=O)N[C@@H](CCCCN)C(=O)NCC(N)=O | broth microdilution | PAO1 | 18 h, 37 °C |  | 15 µM
CC[C@H](C)[C@H](NC(=O)[C@@H](NC(=O)[C@H](Cc1ccccc1)NC(=O)CNC(=O)[C@H](CCC(N)=O)NC(=O)[C@H](CCCCN)NC(=O)[C@H](C)N)C(C)C)C(=O)N[C@@H](Cc1ccc(O)cc1)C(=O)N[C@@H](CCCNC(=N)N)C(=O)N[C@H](C(=O)N[C@@H](CCCNC(=N)N)C(=O)N[C@H](C(=O)N[C@@H](CCCNC(=N)N)C(=O)N[C@@H](CCCNC(=N)N)C(=O)NCC(=O)N[C@@H](CC(N)=O)C(=O)N[C@@H](CCCNC(=N)N)C(=O)N[C@@H](CCCCN)C(N)=O)C(C)C)C(C)C | broth dilution | ATCC 27853 |  |  | > 100 µM
NCCCC1CN(c2ccc3c(n2)NC(=O)CO3)C(=O)O1 (stereo not drawn) |  | ATCC 27853 |  |  | 80 µg/mL
CC(C)(C)Oc1ccc(CC2NC(=O)C(C(=O)NC(C(=O)NC3C(=O)N4C3SC(C)(C)C4C(=O)O)c3ccccc3)=C2O)cc1 (stereo not drawn) |  | fpvA mutant |  |  | 6.25 µg/mL
CC[C@H](C)[C@H](NC(=O)CNC(=O)[C@H](CC(=O)O)NC(=O)[C@H](CCCNC(=N)N)NC(=O)[C@@H](NC(=O)[C@H](CC(N)=O)NC(=O)[C@H](CCCNC(=N)N)NC(=O)CNC(=O)[C@@H](NC(=O)[C@H](CCCCN)NC(=O)[C@H](CCC(=O)O)NC(=O)[C@@H](NC(=O)[C@H](CCCCN)NC(=O)[C@H](CCCCN)NC(=O)[C@H](Cc1ccccc1)NC(=O)[C@@H](NC(=O)[C@H](CCC(=O)O)NC(=O)[C@H](Cc1c[nH]c2ccccc12)NC(=O)[C@@H](N)CCCNC(=N)N)[C@@H](C)CC)[C@@H](C)CC)C(C)C)C(C)C)C(=O)N[C@H](C(=O)N[C@@H](CCCCN)C(=O)N[C@@H](C)C(=O)NCC(=O)N1CCC[C@H]1C(=O)N[C@@H](C)C(=O)N[C@H](C(=O)N[C@@H](C)C(=O)N[C@H](C(=O)N[C@H](C(=O)NCC(=O)N[C@@H](CCC(N)=O)C(=O)N[C@@H](C)C(=O)N[C@@H](C)C(=O)N[C@H](C(=O)N[C@H](C(=O)N[C@H](C(=O)N[C@@H](CCCCN)C(N)=O)C(C)C)C(C)C)[C@@H](C)O)C(C)C)C(C)C)C(C)C)[C@@H](C)CC |  | KCCM 11328, Mueller-Hinton broth | 16 h, 37 °C | growth inhibition over 99% | > 64 µM
CC1(C)SC2C(NC(=O)C(NC(=O)C3=C(O)C(c4ccccc4)NC3=O)c3ccccc3)C(=O)N2C1C(=O)O (stereo not drawn) |  | fptA mutant |  |  | 25 µg/mL
CC[C@H](C)[C@H](NC(=O)[C@H](CCCCN)NC(=O)[C@H](CCCNC(=N)N)NC(=O)[C@H](CCCNC(=N)N)NC(=O)[C@H](CC(C)C)NC(=O)[C@H](CCCCN)NC(=O)[C@H](CCCCN)NC(=O)[C@H](Cc1ccccc1)NC(=O)[C@H](CC(C)C)NC(=O)CNC(=O)[C@H](CCCNC(=N)N)NC(=O)[C@@H](N)CCCNC(=N)N)C(=O)N[C@@H](CCCCN)C(=O)N[C@@H](CCCCN)C(=O)NCC(=O)N[C@@H](Cc1ccccc1)C(=O)N[C@@H](CCCCN)C(=O)N[C@@H](CCCCN)C(=O)N[C@H](C(=O)N[C@@H](Cc1ccccc1)C(=O)N[C@@H](CCCCN)C(=O)N[C@@H](CCCNC(=N)N)C(=O)N[C@@H](CC(C)C)C(=O)N1CCC[C@H]1C(=O)N1CCC[C@H]1C(=O)N[C@H](C(=O)NCC(=O)N[C@H](C(=O)NCC(=O)N[C@H](C(=O)N[C@@H](CO)C(=O)O)C(C)C)C(C)C)C(C)C)[C@@H](C)CC |  | CMCC 10104 | highest concentration 50 µM |  | 10.3 µM
CC[C@H](C)[C@H](NC(=O)CNC(=O)[C@H](CC(=O)O)NC(=O)[C@H](CCCNC(=N)N)NC(=O)[C@@H](NC(=O)[C@H](CC(N)=O)NC(=O)[C@H](CCCNC(=N)N)NC(=O)CNC(=O)[C@@H](NC(=O)[C@H](CCCCN)NC(=O)[C@H](CCC(=O)O)NC(=O)[C@@H](NC(=O)[C@H](CCCCN)NC(=O)[C@H](CCCCN)NC(=O)[C@H](C)NC(=O)[C@@H](NC(=O)[C@H](CCCCN)NC(=O)[C@H](C)NC(=O)[C@@H](N)CCCNC(=N)N)[C@@H](C)CC)[C@@H](C)CC)C(C)C)C(C)C)C(=O)N[C@H](C(=O)N[C@@H](CCCCN)C(=O)N[C@@H](C)C(=O)NCC(=O)N1CCC[C@H]1C(=O)N[C@@H](C)C(=O)N[C@H](C(=O)N[C@@H](C)C(=O)N[C@H](C(=O)N[C@H](C(=O)NCC(=O)N[C@@H](CCC(N)=O)C(=O)N[C@@H](C)C(=O)N[C@@H](C)C(=O)N[C@H](C(=O)N[C@H](C(=O)N[C@H](C(=O)N[C@@H](CCCCN)C(N)=O)C(C)C)C(C)C)[C@@H](C)O)C(C)C)C(C)C)C(C)C)[C@@H](C)CC |  | KCCM 11328, Mueller-Hinton broth | 16 h, 37 °C | growth inhibition over 99% | 16 µM
CC(C)(C)OCC1NC(=O)C(C(=O)NC(C(=O)NC2C(=O)N3C2SC(C)(C)C3C(=O)O)c2ccccc2)=C1O (stereo not drawn) |  | pvcA mutant |  |  | 25 µg/mL
CCCCCCCC(=O)N[C@@H](CCN)C(=O)N[C@H](C(=O)N[C@@H](CCN)C(=O)N[C@H]1CCNC(=O)[C@H]([C@@H](C)O)NC(=O)[C@H](CCN)NC(=O)[C@H](CCN)NC(=O)[C@H](Cc2ccccc2)NC(=O)[C@@H](CCc2ccccc2)NC(=O)[C@H](CCN)NC1=O)[C@@H](C)O | broth microdilution | colistin-resistant isolates |  |  | 0.25 to 0.5 µg/mL
CC[C@H](C)[C@H](NC(=O)[C@H](CC(C)C)NC(=O)[C@H](CCCNC(=N)N)NC(=O)[C@H](CCCNC(=N)N)NC(=O)[C@H](CCCNC(=N)N)NC(=O)[C@H](CCCNC(=N)N)NC(=O)[C@H](CC(C)C)NC(=O)[C@@H](NC(=O)[C@@H](NC(=O)[C@@H](NC(=O)[C@H](CCCNC(=N)N)NC(=O)[C@H](CCCNC(=N)N)NC(=O)[C@H](CCCNC(=N)N)NC(=O)[C@@H](N)CCCNC(=N)N)C(C)C)[C@@H](C)CC)[C@@H](C)CC)C(=O)N[C@@H](CO)C(=O)N[C@@H](Cc1ccccc1)C(=O)N[C@@H](CO)C(=O)N[C@@H](C)C(=O)N[C@@H](Cc1ccc(O)cc1)C(N)=O | broth microdilution | ATCC 27853 | highest value reported |  | 8 µM
CC[C@H](C)[C@H](NC(=O)[C@H](CCCCN)NC(=O)[C@@H](NC(=O)[C@@H](NC(=O)[C@H](CC(C)C)NC(=O)[C@H](CCCNC(=N)N)NC(=O)[C@@H](NC(=O)[C@H](CC(C)C)NC(=O)[C@H](CCCNC(=N)N)NC(=O)CNC(=O)[C@H](Cc1ccccc1)NC(=O)[C@@H](N)CCCNC(=N)N)[C@@H](C)CC)[C@@H](C)CC)C(C)C)C(=O)N[C@@H](C)C(=O)N[C@@H](CCCNC(=N)N)C(=O)N[C@@H](CCCNC(=N)N)C(=O)N[C@@H](C)C(=O)N[C@@H](Cc1c[nH]cn1)C(=O)N[C@@H](CCCNC(=N)N)C(=O)N[C@@H](C)C(=O)N[C@@H](CCCNC(=N)N)C(=O)N[C@@H](CO)C(=O)N[C@@H](C)C(=O)N[C@H](C(=O)N[C@@H](CCCCN)C(=O)N[C@@H](C)C(=O)N[C@@H](C)C(=O)N[C@@H](CO)C(=O)N[C@@H](CC(N)=O)C(=O)N[C@H](C(=O)N[C@@H](C)C(=O)N[C@@H](CCC(=O)O)C(=O)N[C@@H](CC(C)C)C(=O)N[C@@H](C)C(=O)N[C@@H](Cc1c[nH]cn1)C(=O)NCC(=O)N[C@@H](CCC(=O)O)C(=O)O)C(C)C)C(C)C | bacterial growth, broth microdilution | cation-adjusted Mueller Hinton broth | 18 h, 37 °C |  | 2 µM
Cc1cc(Cl)cc2sc(N(CCCn3ccnc3)Cc3ccccc3)nc12 |  | PAO1-Δ6 |  |  | > 100 µM
CC[C@H](C)[C@H](NC(=O)[C@H](CC(C)C)NC(=O)[C@H](CCCCN)NC(=O)[C@@H](NC(=O)[C@H](C)NC(=O)[C@H](CCC(=O)O)NC(=O)[C@H](Cc1c[nH]cn1)NC(=O)[C@@H](NC(=O)[C@H](CCCCN)NC(=O)[C@H](CCC(N)=O)NC(=O)[C@H](Cc1ccccc1)NC(=O)[C@@H](NC(=O)[C@H](CCCCN)NC(=O)[C@H](CCCCN)NC(=O)[C@H](CC(C)C)NC(=O)[C@H](C)N)C(C)C)[C@@H](C)CC)[C@@H](C)CC)C(N)=O | CLSI broth microdilution | ATCC 27853 | 18 h, 37 °C |  | 8 µM
CC1(C)SC2C(NC(=O)C(NC(=O)C3=C(O)C(Cc4ccccc4)NC3=O)c3ccccc3)C(=O)N2C1C(=O)O (stereo not drawn) |  | pvdS mutant |  |  | 25 µg/mL
CC[C@@H](C)[C@@H](N)C(=O)N[C@@H](C(=O)N[C@H](Cc1ccc(O)cc1)C(=O)N[C@@H](C(=O)N[C@H](CCN)C(=O)N[C@H](CC(C)C)C(=O)N[C@H](CO)C(=O)N[C@H](CCN)C(=O)N[C@@H](C(=O)N[C@H](CCN)C(=O)N[C@H](Cc1c[nH]cn1)C(=O)N[C@H](CCN)C(=O)N[C@H](C)C(=O)N[C@H](CCN)C(=O)N[C@H](CCN)C(N)=O)[C@H](C)CC)[C@H](C)CC)[C@H](C)CC | broth microdilution | CDC 0231, Mueller-Hinton broth |  |  | 8 µg/mL
CC1(C)S[C@@H]2[C@H](NC(=O)C(C(=O)O)c3ccccc3)C(=O)N2[C@H]1C(=O)O (stereo partly drawn) |  | fpvA mutant |  |  | 25 µg/mL
CC[C@H](C)[C@H](NC(=O)[C@H](CCCNC(=N)N)NC(=O)[C@H](CCCNC(=N)N)NC(=O)[C@H](CCCNC(=N)N)NC(=O)[C@H](CCCNC(=N)N)NC(=O)[C@H](CCCNC(=N)N)NC(=O)[C@@H](N)CCCNC(=N)N)C(=O)N[C@@H](CO)C(=O)N[C@@H](Cc1ccccc1)C(=O)N[C@@H](CC(C)C)C(=O)NCC(=O)N[C@@H](CO)C(=O)N[C@@H](CCCCN)C(=O)N[C@H](C(=O)N[C@H](C(=O)N[C@H](C(=O)N[C@@H](CC(C)C)C(=O)N[C@@H](CC(C)C)C(=O)N[C@@H](CCCCN)C(=O)N[C@@H](CCCNC(=N)N)C(=O)N[C@@H](CCCNC(=N)N)C(=O)N[C@@H](CCCNC(=N)N)C(=O)N[C@@H](CCCNC(=N)N)C(=O)N[C@@H](CCCNC(=N)N)C(N)=O)C(C)C)C(C)C)C(C)C | broth microdilution | ATCC 27853 | highest value reported |  | 8 µM
CC1(C)SC2C(NC(=O)C(NC(=O)C3=C(O)C(Cc4ccsc4)NC3=O)c3ccccc3)C(=O)N2C1C(=O)O (stereo not drawn) |  | pqsE mutant |  |  | 50 µg/mL
CC[C@H](C)[C@H](NC(=O)[C@H](CC(C)C)NC(=O)[C@H](CCCNC(=N)N)NC(=O)[C@@H](N)CCCNC(=N)N)C(=O)N[C@@H](CC(C)C)C(=O)N[C@H](C(=O)N[C@@H](CCCCN)C(=O)N[C@H](C(=O)NCC(=O)N1CCC[C@H]1C(=O)N[C@H](C(=O)N[C@H](C(=O)N[C@@H](Cc1ccc(O)cc1)C(=O)N[C@@H](CCCCN)C(=O)N[C@@H](Cc1ccc(O)cc1)C(=O)N[C@@H](Cc1ccccc1)C(=O)N[C@@H](CCCCN)C(=O)N[C@@H](CCCCN)C(=O)N[C@@H](CCC(N)=O)C(=O)N[C@@H](CC(C)C)C(=O)N[C@@H](CCCCN)C(=O)N[C@@H](CCCCN)C(=O)N[C@@H](CC(C)C)C(N)=O)[C@@H](C)CC)[C@@H](C)CC)[C@@H](C)O)[C@@H](C)O |  | KCTC 1637, Mueller-Hinton broth | 24 h |  | 4 µM
